Results gathered from unrelated publications.
Each numbered part is a random draw from the data of one study; scales do not carry over between parts.

Study 1
Target: Prothrombin, mature alpha-thrombin (F2, Homo sapiens, UniProt P00734)
Method: aptamer microarray, sandwich
Form: DNA with 2'F-ANA
Matrix: in vitro
Concentration: 200 nM
Setting: whole 15-mer aptamer, many near background
Added: Cy3 exosite-II aptamer, 400 nM
Reading: higher = stronger binding
Oligonucleotide: GGTTGGTGTGGTTGG
Modification	mean fluorescence intensity [a.u.]
2'F-ANA at 1 4 5 6 8 10 12 15	54.9
2'F-ANA at 2 6 7 9 14	127
2'F-ANA at 1 2 4 6 8 10 12 15	54.9
2'F-ANA at 1 2 5 7 8 14	58.4
2'F-ANA at 1 2 3 5 6 7 11 12 14	45.6
2'F-ANA at 1 2 3 4 5 6 8 10 11 13 14	62.7
2'F-ANA at 2 3 5 6 8 10 11 13	53.4
2'F-ANA at 1 3 5 12 13 14	43.4
2'F-ANA at 1 2 6 7 8 10 11 14	47.3
2'F-ANA at 1 2 4 8 11 12 13 14	55.9
2'F-ANA at 3 5 7 10 11 12 13 14	55.1
2'F-ANA at 1 2 3 4 7 9 10 11 12 14	69.8
2'F-ANA at 1 2 3 4 7 9 10 11	59.1
2'F-ANA at 1 5 7 8 9 11 12 14 15	50.8
2'F-ANA at 1 2 4 7 8 9 11 13 14	204
2'F-ANA at 2 4 5 6 8 9	80.5
2'F-ANA at 1 3 4 5 6 7 8 9 10 11 12	56.1
2'F-ANA at 1 2 3 5 6 8 10 12 13 14	67.8

Study 2
Target: Hepatocyte nuclear factor 3-alpha (Foxa1, Mus musculus, UniProt P35582, residues 1-468, full length assumed)
Method: EMSA with sequencing
Form: double-stranded DNA, one strand shown
Matrix: in vitro
Concentration: 10 and 20 nM
Setting: whole designed probe, mean of two concentrations, ends assumed
Reference: negative control set to 0
Reading: higher = stronger binding
Residues (chain): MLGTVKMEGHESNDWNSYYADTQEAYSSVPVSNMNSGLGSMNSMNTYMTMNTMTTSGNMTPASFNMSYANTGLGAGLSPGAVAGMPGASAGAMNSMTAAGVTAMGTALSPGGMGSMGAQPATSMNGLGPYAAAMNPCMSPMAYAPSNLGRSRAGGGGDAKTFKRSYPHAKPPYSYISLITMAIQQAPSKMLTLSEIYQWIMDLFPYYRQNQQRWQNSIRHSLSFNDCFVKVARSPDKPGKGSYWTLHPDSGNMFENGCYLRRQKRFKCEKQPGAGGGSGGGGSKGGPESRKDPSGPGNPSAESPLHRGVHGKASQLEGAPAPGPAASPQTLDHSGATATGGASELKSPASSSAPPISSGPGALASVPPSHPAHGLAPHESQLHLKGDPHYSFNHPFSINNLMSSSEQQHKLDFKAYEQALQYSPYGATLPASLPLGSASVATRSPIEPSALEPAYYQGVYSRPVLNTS
Oligonucleotide	normalised bound fraction [ratio]
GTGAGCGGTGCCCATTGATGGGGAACACATCCTTACTTTCTTCCTGCCTGAAACCCAGGTGAAATTTACTGGAGCCCAGTAAATTCTAGCACTGTCTAACAAACTTAATTTAGGTCCCTGTTTACTTTTTAGCTAAACACTAATTAAACTACACTAATTAATGATGATGCATGTAAAAAATTAGTTTTTTTTTCTTAACGGGAAATGTGAACACTGAAATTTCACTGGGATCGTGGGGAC	0.254
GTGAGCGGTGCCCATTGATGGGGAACACTAAAGACGCTCTGCAATATTCATACCAAGAAGAATCCTTGGAAGAAAAACTAAGGAAACAATTCTAGCTTTCAAATCTAGAGTTGCTGCTAAGTAAACATAAAGATTTACTCAAGAAGATCCCTGAAATAATTCCTAAAGAAAATGAAAGGTCTTTAGAAACCAGGAAAATAAGTGTTAACTTGAAGTCTGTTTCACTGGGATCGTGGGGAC	0.489
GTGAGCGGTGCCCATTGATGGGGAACTATGTGGGAACTAATTGAGGACCATGTTTACAATGCGTACAAATCATAAATCAATTAGTTCATATTGATTTACAAACAAGGAAGAAAAAGTATTTGTTTACATTGATACTGTCCATGTAAACTTTTTTCAATTCAAAAGAAACACATAGTTCTGTCATAAAGTAGATTTTCTATCCCTTTTATTTTCTGAGCTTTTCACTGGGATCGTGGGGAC	0.491
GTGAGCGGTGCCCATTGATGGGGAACACGGAAAGTATGTTGCTGGGGCACAACATTCCAACCACCGCTCTCACAGCAGTACAAGTATCTCATTCTTCACCTTTTAAAATATTTGCCTCTTGTTTATATAGTGCCTGCATGTTTGCAGAGCACATTCACTGGACACTTTTTCATGGGCTCAGAGGGGGTTTGCATTGCAATGAATCTGAGAGGTCATTCTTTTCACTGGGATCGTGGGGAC	0.341
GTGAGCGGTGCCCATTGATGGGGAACTTTGTCTGCTTCCTGCCTATATAACATGCATGGCTATCTAAACTCTCAAATACCCTACTACCTGGCTAGTTTAAGAGGCAAGCACTAGCAGACTTGTTTACTTTGTTTAGATTGCAGCTGCTGTCGCCCTAATGTAAAGGTAATGCCATGACCCCAAGTATCTAGGATACTCTCACTGGAAAAGCTCTGCAAATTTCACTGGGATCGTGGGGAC	0.456

Study 3
Target: RING finger protein unkempt homolog, zinc fingers 1-6, GST-SBP tag (UNK, Homo sapiens, UniProt Q9C0B0, residues 30-357)
Method: RNA Bind-n-Seq
Form: RNA
Matrix: in vitro
Concentration: not given
Setting: RNA with constant flanks, human-mouse chimeric sites, ends assumed
Reference: input RNA pool
Reading: higher = stronger binding
Target sequence (chain): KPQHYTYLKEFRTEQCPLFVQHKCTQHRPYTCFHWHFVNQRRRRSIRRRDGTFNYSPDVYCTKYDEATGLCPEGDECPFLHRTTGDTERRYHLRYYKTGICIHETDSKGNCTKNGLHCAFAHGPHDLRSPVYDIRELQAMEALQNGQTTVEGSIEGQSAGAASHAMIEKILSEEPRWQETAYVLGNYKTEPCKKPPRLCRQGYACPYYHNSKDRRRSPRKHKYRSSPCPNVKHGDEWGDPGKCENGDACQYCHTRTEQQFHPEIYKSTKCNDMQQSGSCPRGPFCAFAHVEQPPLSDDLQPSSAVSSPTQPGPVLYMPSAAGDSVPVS
Oligonucleotide	bound/input enrichment [ratio]
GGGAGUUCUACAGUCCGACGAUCAAAGAGUGGAUAGAGUGUGCACACGGGAUCGGUGGGACCCGGGCGAAGAAAGAGUGCAAGAUAGAAUUCGAUGACUUCGAAGAGUGCUUGCUUCGGUACAAAACGAUGAGGCGAAUGCAUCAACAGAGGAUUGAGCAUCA	0.345
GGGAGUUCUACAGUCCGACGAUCAAAGGCAAAAAGGGCAGCUGUGUCAUUUCAUAAGUAACUCUGGGGGAGGGAAAUUCUGUUCUUUUGUUUAAUUUUCCCCCAAAUGAAACCAACAUGCGUGUUGAAGAACUGAGAAAAAAUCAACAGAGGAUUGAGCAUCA	0.357
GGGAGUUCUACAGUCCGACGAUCUUGCUACUGACUCCCUGGGUCAAGUUCCUGUGGGAGUCAUACAGGCAGUGUUUGGACCUUCUUCGAAACAAUUCUAGAGUAGAGCGCCUUUACCAUGAUAUUGCCCAACAAGCUUUCAAACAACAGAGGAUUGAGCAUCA	0.108
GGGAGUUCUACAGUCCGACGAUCUCUUAACUUAUUCAUUUAACUUAUUUUUAUAGCUAGAGCAAUAUUGUUAGUCUUAGACAAUAGCUCACAUUUUUUGAGAAGCAUGCCCUCCCUAUCCAUUUGUCUUAUAACAUGACCCAGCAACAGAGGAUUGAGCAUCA	62.5
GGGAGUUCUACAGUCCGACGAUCUACUCAACUUUCUUGCCACGUUUUGAAUUCCAAGACAUUAUUCCUCCAGAUGACUUUCUAACGAGUGAUGAAGAGCAAGAUUUGGUUUUAUUUGGAACUAUGAGAGGACAAGUUGUUGGACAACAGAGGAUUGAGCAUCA	0.169
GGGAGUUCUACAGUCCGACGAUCUGGCGCCUGCGCUCCCCACUCGUGUUUUUAAGUGUAUUUUUAUAAGACAUGUGUAUUUACAAUUGAGUUUUUGAUUAAUAAUGCUGAAAUGCUACUGGAGAUUAUGAAAAAUGUUUCAAUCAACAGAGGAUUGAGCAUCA	0.273
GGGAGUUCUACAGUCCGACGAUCCACACACUCUUCUGCGGGACCCUCAUCUUGCAGGCCCGGGCCUAUGUGGGACCGCACGUCCUGGCAGUGGUGACCCGGACAGGGUUCUGCACAGCCAAAGGGGGCCUGGUGAGCUCCAUCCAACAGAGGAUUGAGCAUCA	0.0471
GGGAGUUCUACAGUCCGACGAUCAACUUCGUGCAUCGGUUUCCCUUUGUAGCUGUUUCAAUUGGCUUCCUUGUAAAUAAAAAGAUAGAAUUUGGAAUUGUGUACAGCUGUGUGGAAGAUAAGAUGUACACCGGCAGGAAAGGGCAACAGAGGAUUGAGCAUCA	4.24

Study 4
Target: Histone acetyltransferase KAT6A, winged helix 1, GST fusion (KAT6A, Homo sapiens, UniProt Q92794, residues 1-85)
Method: protein binding microarray
Form: double-stranded DNA, one strand shown
Matrix: in vitro
Concentration: not given
Setting: 8-mer, flanks averaged, mean of 2 arrays, mostly near background
Reference: not given
Reading: higher = stronger binding
Construct (chain): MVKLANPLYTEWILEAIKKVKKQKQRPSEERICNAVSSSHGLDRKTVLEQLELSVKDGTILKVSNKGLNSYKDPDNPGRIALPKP
Oligonucleotide	E-score
TCGGACCA	-0.0404
ATGTGAAG	-0.212
AGCACGAT	-0.0538
GAAGTCGC	0.152
GCTTAGCC	0.186
TGAGTCAA	-0.16
CACAGCTA	-0.243
CACTAGAC	0.0213
AAAAACTC	-0.195
GGGTCAGA	0.0408
ACAATAGC	-0.0362
AGCTACCC	-0.156
AGAAACGG	0.135
CCAGAGTA	0.00851
GTAGGAAA	-0.0944
TCGCATCA	0.0495
CGTCCGAA	0.142
AGTACAAC	-0.155
TCCTAAAA	-0.131
GATGATGC	-0.0426
CAGATAGG	-0.117
CTACCGAA	-0.111

Study 5
Target: RNA binding protein fox-1 homolog 2, RRM domain, GST-SBP tag (RBFOX2, Homo sapiens, UniProt O43251-10, residues 100-194)
Method: RNA Bind-n-Seq
Form: RNA
Matrix: in vitro
Concentration: 365 nM
Setting: natural RNA segment, single round, ends assumed
Reference: no-protein control
Reading: higher = stronger binding
Residues (chain): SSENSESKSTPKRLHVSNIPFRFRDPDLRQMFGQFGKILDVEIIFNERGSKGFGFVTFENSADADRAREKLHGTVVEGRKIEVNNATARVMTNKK
Oligonucleotide	RBNS enrichment (R)
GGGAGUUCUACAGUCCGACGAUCUGAGAAAUUCUCAGUGAUUCUGCAAUGGAUUUUUUUUUAAUGCAGAAGUAAUGUAUACUCUAGUAUUCUGGUGUUUUUAUAUUUAUGUAAUAAUUUCUUAAAACCAUUCAUGGAAUUCUCGGGUGCCAA	0.516
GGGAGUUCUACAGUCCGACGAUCGCUGUGCCAGCGCCGGGCCUUGGAAGCCUUUGACCUGGAUCCUGCACAGUGGGGAGUCAAUGUCCAGCCCUACUCCGGGUCCCCAGCCAACCUGGCCGUCUACACAGCCCUGGAAUUCUCGGGUGCCAA	0.344
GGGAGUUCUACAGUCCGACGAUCCCUCUCAGAUCCCUCGGUCAGCACCGUGGUGUGAGGCCCCCGGAGGCGCCCACCUGCCCAGUUAGCCCGGCCAAGGACACUGAUGGGUCCUGCUGCUCGGGAAGGCCUGAUGGAAUUCUCGGGUGCCAA	0.205
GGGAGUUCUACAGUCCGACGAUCAAAAUUGAUAUGUUGAAACUUUAAUUCUUUUAUCAAUCCCAGCAUUUUGAGAUCAGUCUUUAUUAAUAAAACCUGUUCUCUUUAAUCAGCUUAAAAUCCAAAGUGUCAUAUGGAAUUCUCGGGUGCCAA	0.358
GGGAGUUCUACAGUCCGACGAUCUAGGAUGGAGGAGACAGAGGUCUGUUGUCAUCUACUGUCGCUGGGUAAUAAGGAGGGAGCUCUGGACUCAAAGCAGCUGGCUUCCACAGCUGAAGGUUUUACAUUACGUUUGGAAUUCUCGGGUGCCAA	0.984
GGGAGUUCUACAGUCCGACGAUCUUUCUCCUCUCCAGUUUCUCUCUUGAAAGUCAAACAGUUUUGUAGUUGAAGCAGUCCGUGUGCAAAGCCUGCAUCUAAACACUUGCGUUAAUAAGUCAUUAACCGCUCAGUGGAAUUCUCGGGUGCCAA	0.39
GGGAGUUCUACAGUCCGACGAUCGGUAUGAAUGCUCAGAGCUCACCCGAGCAUGCUGGUAGAGUCAGGGUGUGUAUUUAGUCACCAACCGGCCUCCAUUGUGUGUAUCAGCAAACACCAGACUCGCUCAGAGGUGGAAUUCUCGGGUGCCAA	0.827
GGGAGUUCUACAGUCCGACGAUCUGUUUGAAGUCUGCGAUGAAAAAUAAUUUUUAAAAGUAUUAAGAACACUAAAAUGGAUUAGAAUUAUCUUAAAAGAUCCUUUAUAAAAUGACUUGUAUUGAUUGGUUUAUUGGAAUUCUCGGGUGCCAA	1.11

Some of these lines once more (study 4):
Oligonucleotide	E-score
AGCTACCC	-0.156
ACAATAGC	-0.0362
GCTTAGCC	0.186
CGTCCGAA	0.142
AGTACAAC	-0.155
GTAGGAAA	-0.0944
